Experimental data collected from several papers.
A part holds a random share of what one study measured.

Study 1 — method: protein binding microarray; form: double-stranded DNA, one strand shown; matrix: in vitro; concentration: not given; baseline: not given; direction: higher = stronger binding
Target: Histone acetyltransferase KAT6A, both winged helices, GST fusion (KAT6A, Homo sapiens, UniProt Q92794, residues 1-181)
Notes: 8-mer, flanks averaged, mean of 2 arrays, mostly near background
Target sequence (chain): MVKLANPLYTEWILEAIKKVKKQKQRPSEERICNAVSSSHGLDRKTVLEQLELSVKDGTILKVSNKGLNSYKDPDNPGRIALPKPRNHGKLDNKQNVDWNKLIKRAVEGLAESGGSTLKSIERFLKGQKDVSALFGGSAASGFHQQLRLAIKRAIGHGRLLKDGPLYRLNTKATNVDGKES
`AGGCCTGA` has an E-score of -0.243.
For `TGCCTCAA`, the E-score was -0.148.
The E-score of `TATTGCAA` is reported as -0.000155.
With `CCGCCGGA` the E-score was 0.314.
`AGAACTGG` gave an E-score of -0.148.
`GCGCAACC` has an E-score of 0.21.
The E-score of `ATTTTACC` is reported as -0.0264.
For `ACTTGGCA`, the E-score was -0.324.
For `CGAAGGAC`, the E-score was 0.098.
The E-score of `CCTCTCTC` is reported as -0.273.
The E-score of `CGTTTCGC` is reported as 0.168.
`ATAGAACA` has an E-score of -0.194.
The E-score of `CGCCTAAG` is reported as 0.16.
`ACGAGAAA` gave an E-score of -0.0451.
`CTACGGAC` has an E-score of 0.236.
`AATTCTAT` gave an E-score of -0.135.
For `CTGCCATC`, the E-score was -0.138.

Study 2 — method: RNA Bind-n-Seq; form: RNA; matrix: in vitro; concentration: 1 µM; notes: whole 134-nt RNA, ends assumed; together with: 150 mM KCl; baseline: input library; direction: higher = stronger binding
Target: Ras GTPase-activating protein-binding protein 1, C-terminal RGG region (G3BP1, Homo sapiens, UniProt Q13283)
UniProt Q13283, sequence (whole entry, looked up): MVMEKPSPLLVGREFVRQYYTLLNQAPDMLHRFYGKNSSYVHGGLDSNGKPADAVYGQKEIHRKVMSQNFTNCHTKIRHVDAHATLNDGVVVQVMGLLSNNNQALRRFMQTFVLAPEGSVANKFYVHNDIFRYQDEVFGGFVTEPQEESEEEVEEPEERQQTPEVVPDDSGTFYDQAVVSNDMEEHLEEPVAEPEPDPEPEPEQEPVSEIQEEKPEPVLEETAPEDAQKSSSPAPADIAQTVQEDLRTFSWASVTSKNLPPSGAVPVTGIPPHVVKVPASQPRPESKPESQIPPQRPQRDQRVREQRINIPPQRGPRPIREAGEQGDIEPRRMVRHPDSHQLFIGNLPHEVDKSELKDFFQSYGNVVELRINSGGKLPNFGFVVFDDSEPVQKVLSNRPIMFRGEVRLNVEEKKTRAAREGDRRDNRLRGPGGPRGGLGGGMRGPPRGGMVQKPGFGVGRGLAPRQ
For `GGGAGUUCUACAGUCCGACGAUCUUCCUCAAGUCCUGUGCUACACAUCGUAUGUACCGAAUCGGAGGUGGAGGAAAGUAUUAUGUUACGCCGUUCGGAUCUGCACUUCCAGCAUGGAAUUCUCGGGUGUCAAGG`, the log2 enrichment was -1.51.
For `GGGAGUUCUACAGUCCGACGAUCCACAGACAACACGCACCCACGCAGACACAGAGGGAAGGGGUUGGGAUGGGGACAGGGUGCACAGCAGGGCGGGGUAGGACCCCAGCCCCUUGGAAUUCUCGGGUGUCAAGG`, the log2 enrichment was -0.0924.
With `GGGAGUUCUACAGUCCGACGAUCGCAGGAAGUAAAAACAAAUGGAAAUGCUUCGGAGAGUGGCAGGGGUGGGGGUUGCUAAGGAAAGGGUGGGAUGGGAGUGGGUAAAGAGUUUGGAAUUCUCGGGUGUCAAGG` the log2 enrichment was 1.23.
`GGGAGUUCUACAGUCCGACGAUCAACACUCAAACCACCAUCAAGCUUUUCCAGGAAUGCUGUCCUCAUUCCACUGACAGAGUUGUUCUUAUUGGAGGAAAACCCGAUAGGGUUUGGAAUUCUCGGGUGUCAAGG` gave a log2 enrichment of -0.672.
`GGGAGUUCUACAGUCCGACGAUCUUUUCUGCAUGGACCGUGCCCUAGAAUUUGCCCCUGCCUGCCAUCGCUUCAAAAUCCUCAAGGCAGAAUGUUUAGCAAUGCUGGGUCGUUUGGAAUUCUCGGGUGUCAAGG` has a log2 enrichment of -0.432.
The log2 enrichment of `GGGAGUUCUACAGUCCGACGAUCCAAGUCCUGUGCUACACAUCGUAUGUACCGAAUCGGGAGGGUGGGAAAAAAAGGGAAAGUAUUAUGUUACGCCGUUCGGAUCUGCACUUCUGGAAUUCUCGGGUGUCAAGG` is reported as 0.341.
`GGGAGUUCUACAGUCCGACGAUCCCUGUGCUACACAUCGUAUGUACCGAAUCGGGGUUUUUUUGGGGAAAGGGGAAAAAGGGGAAAGUAUUAUGUUACGCCGUUCGGAUCUGCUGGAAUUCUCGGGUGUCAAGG` gave a log2 enrichment of 0.114.
For `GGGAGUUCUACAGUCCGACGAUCUAUCAGGAGGGCAGACUUCAAAAGCUACUAAAAAUGAACGGCCCUGAAGAUCUUCCCAAGUCCUAUGACUAUGACCUUAUCAUCAUUGGAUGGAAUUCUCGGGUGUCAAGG`, the log2 enrichment was -1.92.

Study 3 — method: universal PBM; form: double-stranded DNA, one strand shown; matrix: in vitro; concentration: not given; direction: higher = stronger binding
Target: Sal-like protein 4, full length isoform B (SALL4, Homo sapiens, UniProt Q9UJQ4-2, residues 1-616)
Notes: 8-mer, flanks averaged, mean of replicates
The E-score of `ATTGTTAG` is reported as 0.213.
`AGAGGTCC` gave an E-score of -0.136.
The E-score of `ACGACGAG` is reported as -0.0627.
With `AGTCATCG` the E-score was 0.063.
For `TAGAATCA`, the E-score was 0.136.
The E-score of `ACAGCAAC` is reported as -0.0314.
`GTTACGTA` has an E-score of 0.134.
`CACTGGCG` gave an E-score of -0.149.
With `CCTGCATA` the E-score was 0.017.
The E-score of `ATGCACGA` is reported as 0.0477.
With `TGGTGTAA` the E-score was 0.0962.
For `TTATCAAA`, the E-score was 0.234.
With `AAAGCTTT` the E-score was 0.0592.
`CGTCTCCA` has an E-score of -0.0649.
`GAAACGTA` gave an E-score of 0.17.
With `CAACAAAA` the E-score was 0.256.
The E-score of `ACGAACAG` is reported as 0.0717.
`AGAATAAC` has an E-score of 0.189.

Other studies, line by line
`PhoQ, residues 284 288 289 292 302 303 GLASVI` gave a fold induction of 1.46 (PhoP, residues 12 14 15 18 19 SYFRT (Escherichia coli, UniProt P23836); Sort-seq, item: YFP reporter; E. coli; PhoQ-PhoP variant library, together with: 10 µM Mg2+; baseline: high Mg2+ state, higher = stronger signaling).
